Published values pooled from the literature.
Every numbered part comes from another study and shows a few of its results, in no order.

Block 1
Target: Sal-like protein 4, full length isoform A (SALL4, Homo sapiens, UniProt Q9UJQ4, residues 1-1053)
Sequence of UniProt Q9UJQ4 (whole entry, looked up): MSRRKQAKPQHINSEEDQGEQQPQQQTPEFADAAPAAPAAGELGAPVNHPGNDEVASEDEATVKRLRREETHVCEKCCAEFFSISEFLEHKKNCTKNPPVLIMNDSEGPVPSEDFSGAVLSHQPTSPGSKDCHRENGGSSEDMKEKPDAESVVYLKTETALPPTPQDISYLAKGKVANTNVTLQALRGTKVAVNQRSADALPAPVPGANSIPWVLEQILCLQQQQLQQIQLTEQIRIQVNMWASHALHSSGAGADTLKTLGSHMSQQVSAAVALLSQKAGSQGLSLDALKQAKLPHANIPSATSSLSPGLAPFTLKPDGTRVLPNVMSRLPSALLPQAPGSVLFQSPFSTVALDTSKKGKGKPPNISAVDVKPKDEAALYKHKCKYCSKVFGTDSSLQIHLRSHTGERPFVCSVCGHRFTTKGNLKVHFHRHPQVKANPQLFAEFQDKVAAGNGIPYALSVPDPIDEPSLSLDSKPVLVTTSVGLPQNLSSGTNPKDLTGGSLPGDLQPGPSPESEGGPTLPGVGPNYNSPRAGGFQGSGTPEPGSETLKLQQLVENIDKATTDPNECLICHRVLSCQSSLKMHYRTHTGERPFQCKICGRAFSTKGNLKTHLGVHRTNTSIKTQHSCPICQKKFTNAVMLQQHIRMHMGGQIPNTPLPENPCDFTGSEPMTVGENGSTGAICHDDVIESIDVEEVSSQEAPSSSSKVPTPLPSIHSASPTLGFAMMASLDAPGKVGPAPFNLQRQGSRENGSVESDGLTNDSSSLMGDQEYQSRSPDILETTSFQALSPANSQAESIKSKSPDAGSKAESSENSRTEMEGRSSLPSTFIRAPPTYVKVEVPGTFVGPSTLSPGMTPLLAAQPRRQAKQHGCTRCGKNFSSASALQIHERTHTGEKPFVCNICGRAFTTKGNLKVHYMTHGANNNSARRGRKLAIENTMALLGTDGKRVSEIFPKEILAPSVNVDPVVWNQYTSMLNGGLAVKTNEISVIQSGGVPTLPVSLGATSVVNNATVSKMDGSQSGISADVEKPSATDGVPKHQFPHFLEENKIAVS
Technique: universal PBM
Form: double-stranded DNA, one strand shown
Sample: in vitro
Concentration: 600 nM
Setting: 8-mer, flanks averaged, mean of replicates
Direction: higher = stronger binding
Oligonucleotide	E-score
ATGCAAGG	-0.105
GCCTGCAA	-0.11
GACCGTCC	-0.327
GAATAGCC	-0.22
CACCTGAG	-0.0773
CACATTAA	0.199
GCAATATA	0.347
ATAGCAAA	0.281
ACGCCCAA	-0.105
CTCACAAG	-0.0586
CCCACGAG	-0.392
CCCTCTTA	-0.0006
GAAAGCCC	-0.173
GCCAAAGA	-0.0418
CCAAACTA	0.0906
CGACACCG	-0.287

Block 2
Target: Histone acetyltransferase KAT6A, winged helix 2, GST fusion (KAT6A, Homo sapiens, UniProt Q92794, residues 85-181)
Technique: protein binding microarray
Form: double-stranded DNA, one strand shown
Sample: in vitro
Concentration: not given
Setting: 8-mer, flanks averaged, mean of 2 arrays, mostly near background
Baseline: not given
Direction: higher = stronger binding
Target sequence (chain): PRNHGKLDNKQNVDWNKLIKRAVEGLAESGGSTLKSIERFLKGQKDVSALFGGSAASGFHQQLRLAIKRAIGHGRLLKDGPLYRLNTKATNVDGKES
Oligonucleotide	E-score
CATCGGCG	0.0566
GCGAGAGC	0.209
CCATAACA	0.156
GCGTTCCC	-0.0431
ATCATTTA	0.104
AGCGGTCA	0.00991
AGAAGCCA	0.096
AGAAGAGG	-0.0675
CCGAAGAA	0.0731
ATGATTCC	0.0728
GCCCCGGA	0.213
GGGATAGA	-0.0941
CTATAGAA	-0.0558
ACGATGCA	0.0614
ATGCCCTC	0.0741
AGGGGCAG	0.147
AGATGACA	-0.0693
CCGTTTGA	-0.0379
AACTCGCC	0.118
CGGACATA	-0.0318
AGCCATTC	-0.0941
ACAAGGAT	0.0755
CAAACTCG	0.0297
AGCTGATG	0.227
GTGACGCA	0.0743

Block 3
Target: Fragile X messenger ribonucleoprotein 1, C-terminal low-complexity region (Fmr1, Mus musculus, UniProt P35922)
Technique: RNA Bind-n-Seq
Form: RNA
Sample: in vitro
Concentration: 200 nM
Setting: whole 134-nt RNA, ends assumed
Together with: 150 mM KCl
Baseline: input library
Direction: higher = stronger binding
All sequences stand within: GGGAGUUCUACAGUCCGACGAUC … UGGAAUUCUCGGGUGUCAAGG
Oligonucleotide	log2 enrichment
CAAGUCCUGUGCUACACAUCGUAUGUACCGAAUCGGGGAAAGGGGAGGGGUGGGGAAAGUAUUAUGUUACGCCGUUCGGAUCUGCACUUC	1.06
CACAGAGAACACGCACCCACACAGACACAGAGGGAAGGGGUUGGGAUGGGGACAGGGUGCACAGCAGGGCGGGGUAGGACCCCAGCCCCU	1.21
CCUGUGCUACACAUCGUAUGUACCGAAUCGGGGAAAGGGGUUUUUUUGGGGUUUUUGGGGAAAGUAUUAUGUUACGCCGUUCGGAUCUGC	0.471
UCAAGUCCUGUGCUACACAUCGUAUGUACCGAAUCGGGUGGGAAAAAGGGAGGGAAAGUAUUAUGUUACGCCGUUCGGAUCUGCACUUCC	1.13
UCCUGUGCUACACAUCGUAUGUACCGAAUCGGGAAAAAAAGGGUUUUUUUGGGAAAGGGAAAGUAUUAUGUUACGCCGUUCGGAUCUGCA	-0.281
CACAGACAACACGCACCCACACAGACACAGAGGGCAGGGGUUGGGAUGGGGACAGGGUGCACAGCAGGGCGGGGUAGGACCCCAGCCCCU	1.31
CACAGACAACACGCACCCACACAGACACAGAGGGAAGAGGUUGGGAUGGGGACAGGGUGCACAGCAGGGCGGGGUAGGACCCCAGCCCCU	1.2
UUCUCUCAUUUCUUCUGAAAUACAGGGCAAAUUGGAUCAAGGCAGUUCAGAUGUGUAGCAAACCCAGAGAAUUUGCAUUGGCUUUAGCCA	0.94

Block 4
Target: RNA binding protein fox-1 homolog 2, RRM domain, GST-SBP tag (RBFOX2, Homo sapiens, UniProt O43251-10, residues 100-194)
Technique: RNA Bind-n-Seq
Form: RNA
Sample: in vitro
Concentration: 365 nM
Setting: natural RNA segment, single round, ends assumed
Baseline: no-protein control
Direction: higher = stronger binding
All sequences stand within: GGGAGUUCUACAGUCCGACGAUC … UGGAAUUCUCGGGUGCCAA
Residues (chain): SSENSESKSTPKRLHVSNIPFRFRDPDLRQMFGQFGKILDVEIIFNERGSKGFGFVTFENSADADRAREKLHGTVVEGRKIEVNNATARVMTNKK
Oligonucleotide	RBNS enrichment (R)
ACAUGCUGACUGUCCUCUCCCCUCCAGCCUUUGGCCUUGGCUUUUCUAGCCUAUUUACCUGCAGGCUGAGCCACUCUCUUCCCUUUCCCCAGCAUCACUCCCCAAGGAAG	0.376
CCUCUCCCAGCUCUUCCCUUUCCCAGUUGUCCCCACUGUAACUCAAAAGGAUGGAAUACCAAGGUCUUUUUAUUCCUCGUGCCCAGUUAAUCUUGCUUUUGUUGGUCAGA	0.707
GUGAUAUUUCAUUUGCUUAACUGUAAACCAUUUCAAGGUACUAACUUUUAAAUCUGUAUGUAAAAUCUUUUCAAAAUACAUUUUUAAGCUAAUACUCUUAACAUAGAUUA	0.509
GUUUUAUAGUUCUUAAUCUAAACAUUUUAUAUUUCCUUCUUUUGGAAAAAACCUACAUGCUACAAGCCACCAUAUGCACAGACUAUACAGUGAGUUGAGUUGGCUCUCCC	0.462
UUAUUUUGUGGUUCUAUUUUACUUUGUACUUGUGUUUGCUUAAACAAAGUGACUGUUUGGCUUAUAAACACAUUGAAUGCGCUUUAUUGCCCAUGGGAUAUGUGGUGUAU	0.725
ACAGAGACCACCUACCCACCACCUUCCCAGGUCACCUGCCUGGUCCCUGAAAGAAAGCAUUUGUGUGGGCAAUCCCAACAUGAAAUGUAGACAGCGUGAAUACGGACAGG	0.298
UGAGACCCUGUCUCAAGGAAAAAUCAAAAGUUCUUUACAGAUGUGUGCGUGCGGGCGUCAGUUUCCAGGAUAGCCGUGCUGCAGUCCAGUUAGGCUGUUCUCCUGAGCUG	0.216
AUGUCAACUGGGUAAAGCCUUCCAGAGCUCUCUAAAUACCUGAAAGACUUAAGCCUUUUUUUAAGUAAUUAAUACUUAAAAAAAAAGAUCCUGGCAUCUAUUUAUGCAAC	0.783
GAAUAAAACAACUGCCUGAUUCUAGGGUUUUCCAUUAAUAGACAGCCAUUGUUCUCUCUGGACCACAGCCUGGAAGCUACUCUAAUUCCCUUUUUCUACAUAUGUGUAGA	0.363
GUUCUGGACCCCAUUUUUGAUAGGCUUUUUUGUCUUGUCCUCUACUCAUGCUGUCUUGGACUCACUGACCCAGCUGCAGGGUUUUGUUACCCUGCCAGUCCCCUGCCUCA	0.765
CUGUGUCCCCCGUAGUAUCCCCGCAGCCCAGGCCGACGAGGCCCACCCCUGGACUUGAUCAGUAUUCAACCUUGUCUCCUGUCCCCAAUGUCGUAAGCACAAUUAGACUU	0.365
UAAAUGCUCCCUGCCUGGUGUGGGGAUGGGGUCCCCCUCUUUGUGAGGGCUGGAGCAUGGCACGGCAUGGAUUAACACGGCAGAGGAACAAAGGUGUGCUCUGAGCUUCU	2.66

Block 5
Target: UBE2N UBC core domain (UniProt P61088)
Technique: yeast two-hybrid
Sample: yeast
Setting: mostly zero background
Baseline: not given
Direction: higher = stronger interaction
B1: RNF17 RING domain (UniProt Q9BXT8); chain SQPWGAAEIQCTRCGRRVSRSSGHHCELQCGHAFCELCLLMTEECTTIICPDCEVATAVNTRQR
B2: SHPRH RING domain (UniProt Q149N8); chain KTSGGVNPEPCPICARQLGKQWAVLTCGHCFCNECISIIIEQYSVGSHRSSIKCAICRQTTSHKEISY
B3: ARIH1 RING domain (UniProt Q9Y4X5); chain NTRSSAQDMPCQICYLNYPNSYFTGLECGHKFCMQCWSEYLTTKIMEEGMGQTISCPAHGCDILVDDNTVM
B4: RFPL3 RING domain (UniProt O75679); chain MAALFQEASSCPVCSDYLEKPMSLECGCTVCLKCINSLQKEPHGEDLLCCCCSMVSQRNKIRP
Target sequence (chain): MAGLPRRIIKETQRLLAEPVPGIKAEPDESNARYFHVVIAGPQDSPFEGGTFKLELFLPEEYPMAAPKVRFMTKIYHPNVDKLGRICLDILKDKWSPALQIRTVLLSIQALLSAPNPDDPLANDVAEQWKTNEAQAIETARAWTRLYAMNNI
Sequence	lacZ reporter activity
KITELNPHLMCALCGGYFIDATTIVECLHSFCKTCIVRYLETNKYCPMCDVQVHKTRPLL (PCGF2 RING domain (UniProt P35227))	0
B1 (RNF17 RING domain)	0
B2 (SHPRH RING domain)	0
EIKDYKARLTCPCCNMRKKDAVLTKCFHVFCFECVKTRYDTRQRKCPKCNAAFGANDFHR (RNF20 RING domain (UniProt Q5VTR2))	0
B3 (ARIH1 RING domain)	0
SNNDLASLFECPVCFDYVLPPILQCQSGHLVCSNCRPKLTCCPTCRGPLGSIRNLA (SIAH1 RING domain (UniProt Q8IUQ4))	0
B4 (RFPL3 RING domain)	0

Block 6
Target: Phosphate system positive regulatory protein PHO4, full length, GST-tagged (PHO4, Saccharomyces cerevisiae, UniProt P07270, residues 1-312)
Technique: competition protein-binding microarray
Form: double-stranded DNA, one strand shown
Sample: in vitro
Concentration: 2 µM
Setting: whole 60-bp probe, lowest competitor level
Together with: Cbf1 competitor, 0.05 µM
Direction: higher = stronger binding
All sequences stand within: … GTCTTGATTCGCTTGACGCTGCTG
Residues (chain): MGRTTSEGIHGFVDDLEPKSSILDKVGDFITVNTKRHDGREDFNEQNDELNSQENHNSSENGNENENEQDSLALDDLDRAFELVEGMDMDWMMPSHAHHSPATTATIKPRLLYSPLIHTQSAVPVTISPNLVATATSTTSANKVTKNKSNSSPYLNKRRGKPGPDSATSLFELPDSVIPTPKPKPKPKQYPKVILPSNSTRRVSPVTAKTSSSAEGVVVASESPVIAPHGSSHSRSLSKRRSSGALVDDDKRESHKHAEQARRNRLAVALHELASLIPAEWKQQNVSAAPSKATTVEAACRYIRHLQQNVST
Oligonucleotide	fluorescence intensity [a.u.]
GTCAATGCCCTAGCAGACGTGCTTTACAAGACTGCC	7100
AAATTACTAAGTTGCTTGGTGGGTGACGCCGTATGA	3870
GCTGGAAGATAGCTTCACGTGGAACATTCCTGACTG	13800
CACTTGAAAACGGTGAACGTGGTCGTATACCTTCGA	11200
CTTCTGTAAATTTGACTCGTGGGTGGACGCGCCCCG	9480
TGCGTTTGGTAGTCGCGCGTGAATATGCTAATTGGG	6150
ATATACAAACTCCATCACGGGATCGATGTGGCTAAG	6570
CTGTTACTTACACTGAACACGCCAAGAGAAAGACTG	6440
GGGAAGACCATCGACCACATGTGTGCATTGTAAAGA	13700
CGTCCTAGTGATTGTCTAGTGGGTGCCATGAGGAAG	6470

Repeated from above (block 5):
Sequence	lacZ reporter activity
KITELNPHLMCALCGGYFIDATTIVECLHSFCKTCIVRYLETNKYCPMCDVQVHKTRPLL (PCGF2 RING domain (UniProt P35227))	0
B1 (RNF17 RING domain)	0
B2 (SHPRH RING domain)	0
EIKDYKARLTCPCCNMRKKDAVLTKCFHVFCFECVKTRYDTRQRKCPKCNAAFGANDFHR (RNF20 RING domain (UniProt Q5VTR2))	0
B3 (ARIH1 RING domain)	0
SNNDLASLFECPVCFDYVLPPILQCQSGHLVCSNCRPKLTCCPTCRGPLGSIRNLA (SIAH1 RING domain (UniProt Q8IUQ4))	0
B4 (RFPL3 RING domain)	0
